# Published values gathered from unrelated publications.
# A part holds a random share of what one study measured.

# Series 1
# Target: Phosphate system positive regulatory protein PHO4, full length, GST-tagged (PHO4, Saccharomyces cerevisiae, UniProt P07270, residues 1-312)
# Technique: competition protein-binding microarray
# Molecule type: double-stranded DNA, one strand shown
# Medium: in vitro
# Concentration: 2 µM
# Setting: whole 60-bp probe, lowest competitor level
# With: Cbf1 competitor, 0.05 µM
# Direction: higher = stronger binding
# Residues (chain): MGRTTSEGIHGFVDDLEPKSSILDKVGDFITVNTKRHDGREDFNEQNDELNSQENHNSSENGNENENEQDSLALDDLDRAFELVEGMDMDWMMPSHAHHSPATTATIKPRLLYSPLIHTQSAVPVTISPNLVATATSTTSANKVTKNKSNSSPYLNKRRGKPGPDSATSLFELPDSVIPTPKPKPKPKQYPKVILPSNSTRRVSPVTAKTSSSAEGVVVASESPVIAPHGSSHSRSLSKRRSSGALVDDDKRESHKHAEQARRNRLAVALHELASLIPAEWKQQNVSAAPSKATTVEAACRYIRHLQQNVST
Oligonucleotide,fluorescence intensity
AAGTTAATCGTCGAGACCGTGACGGATCTTAAGCGCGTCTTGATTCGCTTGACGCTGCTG,5610 a.u.
GCATTGATCAATTTGCACGATGGAAAATTTTTCACTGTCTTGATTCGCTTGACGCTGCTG,8640 a.u.
GTCTTGTCTCATTGTCACCAGACTTTCCCCACTTCAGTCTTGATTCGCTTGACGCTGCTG,4290 a.u.
ACGCTGAATACTTGGCAGGTATGGCTTTCAACAATGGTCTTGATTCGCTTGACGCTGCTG,4350 a.u.
ATAGAAGTTTTTTTATCCTCTCTTTGTTTCCATTATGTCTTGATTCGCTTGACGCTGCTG,3020 a.u.
TAGTGGAAGGATGTACTCGTGATGGGGTTATGGTAGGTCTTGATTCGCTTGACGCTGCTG,8260 a.u.
AAATTACTAAGTTGTAAAGTGGGTGACGCCGTATGAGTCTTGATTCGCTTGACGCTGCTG,4000 a.u.
CCTTTGTCGGTGGTACTCGTGGTGACGGTCCAAGAAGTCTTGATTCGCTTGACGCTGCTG,8660 a.u.
AGTTACTATTTCTGGCTCGTGTAATATATGTATGCTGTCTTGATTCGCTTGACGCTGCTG,9020 a.u.
GACGCCAAGTCCCATCACGTGGTTACGATGTATCGGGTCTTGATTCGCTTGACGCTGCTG,14800 a.u.
GACCATATCTTTGTACGCATTGTTTCCATTCAAAGAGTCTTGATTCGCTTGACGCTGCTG,4500 a.u.
TGCTATCCCGGCGAGCCCGTGGCCGAGGACCTCGCTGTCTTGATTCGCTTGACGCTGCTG,7940 a.u.
TTATCTGACGTCCATCACGTGAAGTGTTTTGCGTAGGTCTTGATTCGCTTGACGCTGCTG,13800 a.u.
TTTTCCGGCAAGAGTCGCGTGATGGTTTTTTCTAATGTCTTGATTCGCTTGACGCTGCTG,6770 a.u.
TGCGCAACAACTTTTCACGTGCTGTTATGTCTAGAAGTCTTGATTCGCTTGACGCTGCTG,15100 a.u.
TACATTTCTTCCCCTCTCGTGATGGCTAGATAATAGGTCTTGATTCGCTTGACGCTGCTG,6860 a.u.
GCTAGAGTAAAATAGTGCATGACAAAAGATGAGCTAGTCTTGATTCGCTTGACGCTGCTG,4850 a.u.
CACTGTTGGCACCTCCACGTGTTGAATTACCAGGGCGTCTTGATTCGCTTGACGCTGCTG,15900 a.u.
CGGGGTTAAGTTTGTTTGGTGGGTGGCTTGCAGCAGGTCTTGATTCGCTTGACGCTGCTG,5530 a.u.
GAGCGATGCCAGCATCACATGCAGGTTTTCAAGTATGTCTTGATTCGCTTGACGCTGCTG,8490 a.u.
AAATTACTAAGTTGTGCTGTGGGTGACGCCGTATGAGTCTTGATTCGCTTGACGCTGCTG,5330 a.u.

# Series 2
# Target: RNA binding protein fox-1 homolog 2, RRM domain, GST-SBP tag (RBFOX2, Homo sapiens, UniProt O43251-10, residues 100-194)
# Technique: RNA Bind-n-Seq
# Molecule type: RNA
# Medium: in vitro
# Concentration: 365 nM
# Setting: natural RNA segment, single round, ends assumed
# Baseline: no-protein control
# Direction: higher = stronger binding
# Target sequence (chain): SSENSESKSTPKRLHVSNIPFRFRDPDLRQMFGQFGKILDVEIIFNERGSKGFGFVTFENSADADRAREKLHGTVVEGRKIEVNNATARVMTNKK
Oligonucleotide,RBNS enrichment (R)
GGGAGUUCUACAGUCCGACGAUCCGAGUGGUUGGUCUGAAGUCCUUGCAAGACGCUGAUGCUCAAGCUGUUGACAUACUCAUUGCCUACUUUAACACCUGUCAGAGAAACGUGAUAUGGGGUAAGGAGGUGCUUGGAAUUCUCGGGUGCCAA,0.756
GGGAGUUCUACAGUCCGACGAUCGUUCCCAUGGAGCUCAGGUCAGGCUCUGUAUUCAGACCGAGGGUUUGUGUGAGGCUCAGAGCAAAUGAACAAGUGCCAUUCAAGGGUUAGAAACUGCUCAGCCACAGGGUUGGAAUUCUCGGGUGCCAA,0.561
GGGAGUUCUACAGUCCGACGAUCAAGCUGCCAGUCUAAAUUCUAAAUAGUGUAUCUGAAAUCUCAGUUCCCAAAAUAGUUGUCAGGUUUAAUCAUCAGGCAACACUGCGUAUACCUGUGUGGCUAUCCUCAUCUGGAAUUCUCGGGUGCCAA,0.214
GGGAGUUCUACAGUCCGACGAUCAGGAAAGUUAAAAACAAAUAUGCACAGUACAAAAUAGAUCUGUGGCUUUUUUUUUUUAAAGUAAGAAUAGCUUGUUAGUAUAUCAAUGUUCAUGGCUAAUGUUAUCUCAUUGGAAUUCUCGGGUGCCAA,0.601
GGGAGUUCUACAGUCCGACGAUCACACCAUCACAGCCCCCGGAGACCUGCGGAGGAUCUACUUAUGAGCUAGCUGUCUAGGCAGGCCUUGCCUCGAGCAACGCCCCUGCCCAGCCUCUGUGACAGUGACUCCCUGGAAUUCUCGGGUGCCAA,0.256
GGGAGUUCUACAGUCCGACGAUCCUUGACCUGACACUUGCAUUUUCUAGGCCACUCUUUGGGGUGGCUGAGAAUCAUGACAGACCCUCUGCCAGUCUCUAGUUUCUCUGGGUCAGGUUUCUGAGUACUGGCAUUGGAAUUCUCGGGUGCCAA,0.461
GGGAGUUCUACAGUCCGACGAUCGUUCUCAUGGGCAGGCUCAGGUCUGUCCCGCUGCCCUGGGCACGAGGUCUCCUGAGGACCUGGGCCUGUUCUGCUCCUAGGAGACCUGAGCCCGUUACCGCGUGACUCCCUGGAAUUCUCGGGUGCCAA,0.254
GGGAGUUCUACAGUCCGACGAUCUGGGAUCAGGUGGCCCUCCAACUCAGCACAGGAAAUAAGUAGAAACAUUUCAGCAGGCCACCUCCCCUCAUCUUCCCCGCCCUGUCCAGCGCCCUGGCAAAGGCUGACAAUGGAAUUCUCGGGUGCCAA,0.594
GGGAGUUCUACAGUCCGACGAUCGGGCCCACCAUCAGCCUGGACCUGGACGUGGAUGAUGUGGAGAUGGAGAACUAUGAGGCCCUCCUGAACCUGGCCGAGCGGCUGGGAGAUGCCAAGCCCCGGGGUCUCACUGGAAUUCUCGGGUGCCAA,0.343

# Series 3
# Target: Prothrombin, mature alpha-thrombin (F2, Homo sapiens, UniProt P00734)
# Technique: aptamer microarray, sandwich
# Molecule type: DNA with 2'F-ANA
# Medium: in vitro
# Concentration: 200 nM
# Setting: whole 15-mer aptamer, many near background
# With: Cy3 exosite-II aptamer, 400 nM
# Direction: higher = stronger binding
# Oligonucleotide: GGTTGGTGTGGTTGG
Modification,mean fluorescence intensity [a.u.]
2'F-ANA at 3 4 5 6 9 10 13 15,72.6
2'F-ANA at 3 4 5 6 7 8 9 10 11 12,72.3
2'F-ANA at 1 2 3 4 6 7 12 13 14,68.5
2'F-ANA at 4 7 10 11 13 15,70.9
2'F-ANA at 2 9 10 12 13 14 15,82.5
2'F-ANA at 1 4 5 6 7 8 9 10 11 12 13,48.8
2'F-ANA at 1 3 4 5 8 9 11 15,67.4
2'F-ANA at 1 2 3 4 5 6 7 8 10 13,49.4
2'F-ANA at 1 3 5 6 7 8 10 12 13,48.1
2'F-ANA at 3 4 7 8 9 10 11 12 13 14,194
2'F-ANA at 1 4 6 8 10 11 12 15,64.6
2'F-ANA at 1 2 3 6 9 12 15,414
2'F-ANA at 1 3 4 5 6 7 9 11 12 14 15,47.4
2'F-ANA at 3 4 11 12 14 15,367
2'F-ANA at 2 4 5 6 8 9 13 15,52.7
2'F-ANA at 1 3 4 6 7 8 12 13 15,323
2'F-ANA at 1 2 4 6 8 9 11 13,82.9
2'F-ANA at 2 4 6 8 12 14 15,135
2'F-ANA at 1 4 5 8 9 11 13 14,46.9
2'F-ANA at 2 3 5 6 7 9 10 14,48.9
2'F-ANA at 2 4 8 10 12 13 14,80.5
2'F-ANA at 4 5 7 8 9 10 15,46.9
2'F-ANA at 1 3 5 6 8 10 12 13,48.1
2'F-ANA at 2 3 5 8 10 12 13,56.9
2'F-ANA at 1 3 14 15,83.7

# Series 4
# Target: Ras GTPase-activating protein-binding protein 1, full length (G3BP1, Homo sapiens, UniProt Q13283)
# Sequence of UniProt Q13283 (whole entry, looked up): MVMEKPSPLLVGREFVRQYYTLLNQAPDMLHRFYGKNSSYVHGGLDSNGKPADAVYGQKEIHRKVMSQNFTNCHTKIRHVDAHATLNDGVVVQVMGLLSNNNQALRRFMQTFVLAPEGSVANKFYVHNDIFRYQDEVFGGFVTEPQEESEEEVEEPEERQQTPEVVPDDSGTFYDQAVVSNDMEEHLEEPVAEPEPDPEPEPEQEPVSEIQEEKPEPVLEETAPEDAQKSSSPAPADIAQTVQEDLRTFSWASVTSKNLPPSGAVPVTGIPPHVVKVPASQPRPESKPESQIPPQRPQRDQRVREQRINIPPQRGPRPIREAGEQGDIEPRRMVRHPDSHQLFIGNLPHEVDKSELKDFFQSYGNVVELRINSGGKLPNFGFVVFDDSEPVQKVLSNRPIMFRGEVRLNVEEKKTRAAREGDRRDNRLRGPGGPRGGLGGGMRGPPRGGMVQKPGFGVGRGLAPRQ
# Technique: RNA Bind-n-Seq
# Molecule type: RNA
# Medium: in vitro
# Concentration: 200 nM
# Setting: whole 134-nt RNA, ends assumed
# With: 150 mM LiCl
# Baseline: input library
# Direction: higher = stronger binding
# Each molecule: 7-deaza-guanosine replaces G
Oligonucleotide,log2 enrichment
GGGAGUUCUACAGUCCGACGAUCAAGUCCUGUGCUACACAUCGUAUGUACCGAAUCGGGAAAGGGAAAGGGUUUUUGGGAAAGUAUUAUGUUACGCCGUUCGGAUCUGCACUUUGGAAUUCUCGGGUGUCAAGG,-1.15
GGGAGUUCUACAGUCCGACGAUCCCUCAAGUCCUGUGCUACACAUCGUAUGUACCGAAUCGGAGGGGAGGGAGGGAAAGUAUUAUGUUACGCCGUUCGGAUCUGCACUUCCAGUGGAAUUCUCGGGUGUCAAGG,0.449
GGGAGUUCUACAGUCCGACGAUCUCCUGUGCUACACAUCGUAUGUACCGAAUCGGGCCCCCCGGCCCCCCGGGGCCCCCCGGGAAAGUAUUAUGUUACGCCGUUCGGAUCUGCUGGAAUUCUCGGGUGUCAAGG,0.131
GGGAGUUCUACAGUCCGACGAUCUGGCCCUGGUGGCAUGCGGGGAGGAAGAGGUGGCCUCAUGGAUCGUGGUGGUCCCGGUGGACUGUUCAGAGGUGGCCGUGGUGGAGACAGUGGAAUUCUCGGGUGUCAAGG,0.648
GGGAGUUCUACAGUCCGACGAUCUGGGAGGUGGAUUUUGUUUAUUUUUUUAGCUCAUUUCCAGGGGUGGGAAUUUUUUUUUAAUGUGUGUCAUGAAUAAAGUUGUUUUUGAAAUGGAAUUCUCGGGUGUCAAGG,-0.43
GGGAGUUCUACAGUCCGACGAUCGUCCUGUGCUACACAUCGUAUGUACCGAAUCGGGGUUUUUGGGGAGGGGUUUUUGGGGAAAGUAUUAUGUUACGCCGUUCGGAUCUGCACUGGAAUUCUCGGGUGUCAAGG,0.0776
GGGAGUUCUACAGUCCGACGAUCCUCAAGUCCUGUGCUACACAUCGUAUGUACCGAAUCGGGGAAGGGAAGGGAAGGAAAGUAUUAUGUUACGCCGUUCGGAUCUGCACUUCCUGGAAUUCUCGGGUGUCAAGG,-0.583
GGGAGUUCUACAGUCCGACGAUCCCUGUGCUACACAUCGUAUGUACCGAAUCGGGGUUUGGGGAAAAAGGGGUUUUUUUGGGGAAAGUAUUAUGUUACGCCGUUCGGAUCUGCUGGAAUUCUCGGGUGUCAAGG,0.348
